# Experimental data pooled from the literature.
# Numbered parts are unrelated; each lists some results of a single study.

# Series 1 — method: protein binding microarray; form: double-stranded DNA, one strand shown; matrix: in vitro; concentration: not given; reference: not given; direction: higher = stronger binding
# Target: Histone acetyltransferase KAT6A, both winged helices, GST fusion (KAT6A, Homo sapiens, UniProt Q92794, residues 1-181)
# Notes: 8-mer, flanks averaged, mean of 2 arrays, mostly near background
# Construct (chain): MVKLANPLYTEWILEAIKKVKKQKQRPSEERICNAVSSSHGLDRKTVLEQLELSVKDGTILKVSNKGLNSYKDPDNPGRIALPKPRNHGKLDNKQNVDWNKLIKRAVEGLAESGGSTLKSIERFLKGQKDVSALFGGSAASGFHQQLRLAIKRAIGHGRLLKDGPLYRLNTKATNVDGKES
Oligonucleotide,E-score
AACCTAGT,-0.191
AGCCTAAA,-0.245
CACCTGGG,-0.303
CGAAGTTA,-0.171
GATGATCA,-0.0203
AAAGACTT,-0.214
GCTAAAAC,0.12
TATCATAA,-0.0606

# Series 2 — method: protein-binding microarray; form: double-stranded DNA, one strand shown; matrix: in vitro; concentration: 250 nM; notes: 60-bp whole probe; together with: salmon DNA 0.4 mg/ml; reference: random background probes; direction: higher = stronger binding; constant ends, left off below: GCCTAGCAC … GTCTTGATTCGCTTGACGCTGCTG
# Target: Interferon regulatory factor 5, full length, phosphomimetic (IRF5, Homo sapiens, UniProt Q13568-2, residues 1-514, K96S/S451D/S453D/S456D/S462D)
Oligonucleotide,log fluorescence [z-score]
TTAGGACTGGGACTTGGTTAGTGCTAG,-0.671
TCATTTCTGTTGTCTGTGACTGTGCTA,3.62
TCACCTCCCCCTCTGCCACTGTGCTAG,-0.279
GAAGAACTGAGTTTCGAGACGTGCTAG,5.02
TTAGGTTTCGGGTTTCGGTAAGTGCTA,9.74
GACGGTTTCCTTTTCCCGACGTGCTAG,0.999
TTAGATCTCAGTCTCGTTTAGTGCTAG,0.708
GGTGTTTTCTAAACCATTGTGTGCTAG,0.508

# Series 3 — effect on: enzyme activity; mode: inhibitor; concentration: 20 µM
# Target: Replicase polyprotein 1ab, polymerase (rep, Severe acute respiratory syndrome coronavirus 2, UniProt P0DTD1)
Compound,inhibition [%]
CN1C(C(=O)Nc2ccccn2)=C(O)c2sccc2S1(=O)=O,-3.67
CC(C)c1ccc(C(=O)N=C(N)N)cc1S(C)(=O)=O,-0.79
COc1ccc(CCN)cc1OC,-1.01
Nc1ccc(S(=O)(=O)Nc2ccc(Cl)nn2)cc1,27.7
CCC(C)N(C)C(=O)c1cc2ccccc2c(-c2ccccc2Cl)n1 (stereo not drawn),-6.19
COc1cc2nc(N3CCN(C(=O)COc4c(OC)cccc4C(C)C)CC3)nc(N)c2cc1OC,-7.58
O=Cc1cn(Cc2ccc(Cl)cc2)c2ccccc12,2.26
Cc1c(C(N)=O)cc([N+](=O)[O-])cc1[N+](=O)[O-],-5.68
C=CCc1ccc(O)c(-c2cc(CC=C)ccc2O)c1,-7.5
COc1ccc(NC(=O)c2ccc(-c3ccc(-c4noc(C)n4)cc3C)cc2)cc1OCCN(C)C,4.16
CCCCOc1c(C(=O)c2c(F)cc(C)cc2F)c[nH]c2nncc1-2,-5.53
N#C/C(=C1/SC[C@@H](c2ccc(Cl)cc2Cl)S1)n1ccnc1,-6.32
O=C1OC(OC(=O)c2cccnc2Nc2cccc(C(F)(F)F)c2)c2ccccc21 (stereo not drawn),-0.76
Cc1c(Nc2ncccc2C(=O)O)cccc1C(F)(F)F,-0.36
O=C(NC[C@H](O)CO)c1ccncc1Nc1ccc(I)cc1F,2.57
O=C(O)[C@@H](c1ccc(OCc2ccc3ccccc3n2)cc1)C1CCCC1,-3.61
CC(ONC(=O)c1cc(C(F)(F)F)cc(C(F)(F)F)c1)C(=O)Nc1ccc(Cl)cc1 (stereo not drawn),-1.84
CN(C)C/C=C/C(=O)Nc1cc2c(Nc3ccc(F)c(Cl)c3)ncnc2cc1O[C@H]1CCOC1,4.78
COc1ccccc1OC(=O)c1ccccc1OC(C)=O,-18.9
N[C@@H](C[C@@H](F)C(=O)O)C(=O)O (racemic),-0.6
Cc1cccc(-c2[nH]c(C(C)(C)C)nc2-c2ccc3c(c2)OCO3)n1,0.64
Nc1ccn([C@@H]2O[C@H](CO)[C@@H](O)[C@@H]2O)c(=O)n1,5.36
Fc1ccccc1-c1nc2ccn(Cc3ccc(-c4ccc(C(F)(F)F)cc4C(F)(F)F)nn3)cc-2n1,3.12
O=c1[nH]c(=O)n([C@H]2C[C@H](O)[C@@H](CO)O2)cc1F,-1.63
COCCOc1ccc2c(c1)ncn2-c1ccc2cccc(N3CCC(N)CC3)c2n1,7.43

# Series 4 — method: RNA Bind-n-Seq; form: RNA; matrix: in vitro; concentration: 365 nM; reference: no-protein control; direction: higher = stronger binding
# Target: RNA binding protein fox-1 homolog 2, RRM domain, GST-SBP tag (RBFOX2, Homo sapiens, UniProt O43251-10, residues 100-194)
# Notes: natural RNA segment, single round, ends assumed
# Constant ends, left off below: GGGAGUUCUACAGUCCGACGAUC … UGGAAUUCUCGGGUGCCAA
Oligonucleotide,RBNS enrichment (R)
GAAGAGGUUAUAAAGGGACAGAUGGUCAUAGAAACCUUUGCAGAGGCAGUUGUGCCAACCCAAGGGCUCUUUCAUUGUUCGUUGGCUUCUGUCUUUAAAGCCAAGAAAGU,0.748
GGAGCCAGUACCACUUCCAGCAGUGAGAGCUUUGAGGAGGAGAAGGGGCCUGGGCUCGGCCUAGCCAGCGCUCUCCCAGAAUUGAACACUUUCUGCCUGGGAUGUCUGCU,0.658
GAGUGAAACAUUUUCCAAGGCCUUAUUUCUUUUUCAGAAUGCUUUAAGUGUUGAUUAUAUGUGCUGGGUCUCUAGAGAAGUUUUUAUUUGUUACAAUACUGCUGCUUUGA,1.23
AUUUGAAGGAAACAUGCACAAAUCUGUAAAACAUAGACCUUCGCUUUAUUUUUGUAAGUAUCACCUGCCACCAUGUUUUGUAAUUUGAGGUCUUGAUUUCACCAUUGUCG,0.551
GAAAUCAUAUUAUAAAUAUUUCAACUAAUUUUACUCUGAAUUUGUUUAUUAAAAGCUUUUUGAACAUUAAAUUAUUAUUUCUUCAAUGCAUUUAGAAGUUAGAACAGAAA,1.31
AUCUAGUCUAUUUGUGUUAAAACAUGCUUUCAGAUGGAAGACGAACAUUCAUCUUAUAAAUGAACAGAAAAUAAACUAGUCUGGCCCUUUGAGUUUGUCACUCCAGUAAC,0.381
UAGAAGCAGACGAUCUCGGGCUCCAAGUAUUUCAGAAUGAUUUAAAAAGUCAUGCCACAGGAAGGGUCUAUUGCAGAAUUUCAAGUUCUGUUUAUAGUAAAAAGGAAGAG,0.362
AUUUAUUUUUUUACUGAACCCAACUUGUAUCUCUAGGUUCAGCCCUUGGCCACUCUGGCCCUGAGCCUGGCUGAAUAGCAGGGCCCGUGUGUGUAGGCUCCCUUCUCACC,0.719

# Series 5 — cell line: HEK-293T; effect on: pseudovirus infection; method: FDA-approved drug library screen; organism: VSV pseudotyped with SARS-CoV-2 spike; concentration: 10 µM; time: 16 h; reference: vehicle-treated
Structure (SMILES),GFP-positive cells [%]
COc1cc2nc(N(C)CCCNC(=O)C3CCCO3)nc(N)c2cc1OC (stereo not drawn),103
Nc1nc(=O)c2nc(CNc3ccc(C(=O)N[C@@H](CCC(=O)O)C(=O)O)cc3)cnc2[nH]1,77.4
CCCc1nc(C)c2c(=O)[nH]c(-c3cc(S(=O)(=O)N4CCN(CC)CC4)ccc3OCC)nn12,100
Nc1ccncc1,98.8

# Other studies, line by line
SMILES,target,assay,conditions,endpoint,result
CC[N+](C)(CC)CCC[n+]1c(-c2ccccc2)c2cc(N)ccc2c2ccc(N)cc21,"Replicase polyprotein 1ab, main protease (rep, Severe acute respiratory syndrome coronavirus 2, UniProt P0DTD1)","enzyme activity, inhibitor","20 µM, primary screen",inhibition,82.9%

# For quick reference, copied from above (series 1):
Oligonucleotide,E-score
GATGATCA,-0.0203
CGAAGTTA,-0.171
CACCTGGG,-0.303
TATCATAA,-0.0606
GCTAAAAC,0.12
AGCCTAAA,-0.245
AACCTAGT,-0.191
AAAGACTT,-0.214
